# Measurements pooled from the literature.
# A part holds a random share of what one study measured.

# Set 1
# Target: PABPC1L2, full length, GST fusion (mouse, UniProt A0ABA7IW68)
# Method: RNAcompete
# Molecule type: RNA
# Matrix: in vitro
# Tested at: 20 nM
# Notes: 7-mer, probes averaged, single round
# Baseline: mean of 7-mers
# Direction: higher = stronger binding
# Residues (chain): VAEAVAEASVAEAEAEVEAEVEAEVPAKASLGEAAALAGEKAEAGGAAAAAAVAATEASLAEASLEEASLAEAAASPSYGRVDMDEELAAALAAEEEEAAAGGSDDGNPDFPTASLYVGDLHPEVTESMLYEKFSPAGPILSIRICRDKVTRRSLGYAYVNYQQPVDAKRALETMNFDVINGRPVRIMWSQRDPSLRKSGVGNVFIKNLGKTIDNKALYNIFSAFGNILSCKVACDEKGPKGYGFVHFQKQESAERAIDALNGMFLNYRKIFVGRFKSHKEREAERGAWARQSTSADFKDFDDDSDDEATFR
Strand,7-mer Z-score
UGCAGCC,-0.237
GCCUGUA,-0.126
GUAUAAA,2.6
AUAGCCC,0.0787
AUUCUUU,-0.0881
GAAGGGU,0.129
AGGUCUG,-0.0971
CUGACUA,0.00436
GCCCGCA,-0.213
GCCUUGU,-0.407
UCCAGCG,-0.168
GUCGCGC,-0.249
CCUUGGC,-0.358
CAGCUCU,-0.284
CGCACCU,-0.273
CCAUGCC,-0.249
UCCGAUA,-0.0428
GAGACCU,-0.0373
GACGGAG,-0.012
ACCCGCG,-0.331
AGAGUUC,-0.376
GACAAAC,0.675
AUAUGGU,-0.0573
UUAGAUA,-0.115
GGGACUA,0.41

# Set 2
# Target: Interferon regulatory factor 5, full length, phosphomimetic (IRF5, Homo sapiens, UniProt Q13568-2, residues 1-514, K96S/S451D/S453D/S456D/S462D)
# Method: protein-binding microarray
# Molecule type: double-stranded DNA, one strand shown
# Matrix: in vitro
# Tested at: 250 nM
# Notes: 60-bp whole probe
# With: salmon DNA 0.4 mg/ml
# Baseline: random background probes
# Direction: higher = stronger binding
# Shared flanks, not repeated: GCCTAGCAC … GTCTTGATTCGCTTGACGCTGCTG
Strand,log fluorescence
GACGGACTGGACACTGGAGACGTGCTA,-0.606 z-score
GACGGGATCCTACTGCTGACGTGCTAG,-0.801 z-score
GACGATATCAGGACTGGAGACGTGCTA,0.375 z-score
TTAGGTATCGGGACTGGGGTAGTGCTA,1.67 z-score
TGCTGTGTGCATCTATCTTAGTGCTAG,-0.411 z-score
TCTCTTCTGCTTCCTCAGGACGTGCTA,0.116 z-score
GACGGTCTCGATTTCGGGACGTGCTAG,1.42 z-score
TTAGGTTTCGACTATCGGTTTGTGCTA,9.08 z-score
TTTGGTATCGACTTTCGGTTAGTGCTA,10.6 z-score
TCATTCTTCCCTGTGAAACTGTGCTAG,0.623 z-score
TTAGATATCAGACTGCATTAGTGCTAG,0.176 z-score
TCATTTACCCATCTCCAACTGTGCTAG,0.4 z-score
TCACATTTCCCTTGCCGACTGTGCTAG,0.718 z-score
TTAGGTATCGACCCTGGGTTAGTGCTA,1.63 z-score
ATTGCTTTCTCTTTCACTGCGTGCTAG,6.81 z-score
TCAATATCCATTATAGAACTGTGCTAG,0.704 z-score
TTAGGTTCCGACTATCGGTTAGTGCTA,6.29 z-score
TTAGAACTGGGGTCTCGATTAGTGCTA,-0.0584 z-score
TTTGGTTTCCTTATCCTTTAGTGCTAG,1.51 z-score
GTCCCCTGTCGGGAGGTCAGGTGCTAG,-0.475 z-score
GTCGGTATCGGTCTCGGGACGTGCTAG,6.71 z-score
TTGGATTCCAGTTTCGATTAGTGCTAG,9.76 z-score

# Set 3
# Target: RING finger protein unkempt homolog, zinc fingers 1-6, GST-SBP tag (UNK, Homo sapiens, UniProt Q9C0B0, residues 30-357)
# Method: RNA Bind-n-Seq
# Molecule type: RNA
# Matrix: in vitro
# Tested at: not given
# Notes: RNA with constant flanks, human and mouse sites, ends assumed
# Baseline: input RNA pool
# Direction: higher = stronger binding
# Shared flanks, not repeated: GGGAGUUCUACAGUCCGACGAUC … CAACAGAGGAUUGAGCAUCA
# Target sequence (chain): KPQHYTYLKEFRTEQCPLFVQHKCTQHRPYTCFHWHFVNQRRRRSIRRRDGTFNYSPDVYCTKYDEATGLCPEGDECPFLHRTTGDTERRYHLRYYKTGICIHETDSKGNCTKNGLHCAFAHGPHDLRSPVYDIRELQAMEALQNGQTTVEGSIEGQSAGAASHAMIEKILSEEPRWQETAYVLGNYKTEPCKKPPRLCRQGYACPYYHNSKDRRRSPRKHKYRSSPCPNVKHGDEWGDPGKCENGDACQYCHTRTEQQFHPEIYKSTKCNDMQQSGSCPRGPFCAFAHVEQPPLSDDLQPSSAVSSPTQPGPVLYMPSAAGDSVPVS
Strand,bound/input enrichment
GACACAAACUACAAUGCAAACCUUUUUCCUGGUACCUAGAGAAUAUAUAUCCUGAUUCUCAAAUUCCACGUCACUAUUUCUCAUUGGGAGAGAUACGAAAUGUGGAAACGAAUCAGUGUC,1.36 ratio
UUAUUCCCUUCAUCAUUUACUGAAAAUUGUGAAUUACUGUCAUGCUCAGGGGAGAAUAGAACUAUGGUGCAUUCUCUUAAUAGCACUGCUGAUGAAAGUGGACUAAAUAAACUUAAAAUU,0.105 ratio
GUGGUCCACGACUGUCCCGUCUGGGACAUAUUUGACAGUGAUUGGUACACUUCUCGAAAUCUAAUUGGGGGCGCUGACAUCAUUGUGAUCAAAUACAACGUUAAUGACAAGUUUUCAUUC,0.124 ratio
CAUUUGCGGAGGAACAUUGGUGUUACAGCAGUGGCAUUUAAUAAGGAACUUGAUCCUAUACAGAAACUCUUUGUGGACAAGAUUAGAGAAUACAAAUCUAAGCGACAGACAUCUGGAGGA,0.196 ratio
AAGACGCCCAUCCGGAACAGGGCCUUCUACAUGGAGGAGGGCGUGCCCUAUUGCGAGCGAGACUAUGAGAAGAUGUUUGGCACGAAAUGCCAUGGCUGUGACUUCAAGAUCGACGCUGGG,0.0828 ratio
AAUUUGGCGAAAAUUCUUAAGAGGCAUCCAGGUUUAAGAAACAUUCUGCCUAUAACUACUGCCAAAGUGCCUAUUGUAAAAUUUGAACACAGGAGAAGUGGACUAGAAGGUGAUAUCAGU,0.386 ratio
UCAUAUCAAACAUUAAAUUUAAAAGUGACCACUCUUAAUUAAAAUUAACUUUUAAAUGUUUAUAGGAGUACGUGCUGUGAAGUGAUCUGAAAUUUGUAAUAUUUUUGUCAUGAACCGUAC,0.35 ratio
AGUGAGAACACCCUGCAGUUCUACAAUGAGAGGGUGGUGAUCAUGAACUCGAUCCUGGAGCGCAUGUGUGCCGACGUGCUGCAGCAGACAGCCACGCAGAUCAAGUUUCCCUCCACCGGG,0.0901 ratio
CAGCCUAUUGCUGUGGCCUCCCUGUCUACAAACACAGAGCAAGACCGAGUCUCUCGAGGAACAAGUACAGUCAUGCCAUCAGCUUCUCUACUCCCACCACCAGAACCAAUUGAGGAAGCU,0.456 ratio
CUGAGAAUCUAUCUUGAUGAAAGGAGAGAUGUCUUGGAUGACCUUGUAACAUUGCAUAAUUUUAGAAAUCAGUUCUUGCCAAAUGCACUGAGAGAAUUUUUUCGUCAUAUCCAUGCCCCU,0.348 ratio
ACUGGAGAGAAACCUUACAAGUGUGACGAAUGUGGCAAAUCAUUUAUCUGGUCCUCAACCCUUUUUAAGCAUAAGAGGAUUCAUACUUGAGAGAAACCUUAAAAAGGGUAAAGAAUGUGG,0.245 ratio

# Set 4
# Target: Histone acetyltransferase KAT6A, winged helix 1, GST fusion (KAT6A, Homo sapiens, UniProt Q92794, residues 1-85)
# Method: protein binding microarray
# Molecule type: double-stranded DNA, one strand shown
# Matrix: in vitro
# Tested at: not given
# Notes: 8-mer, flanks averaged, mean of 2 arrays, mostly near background
# Baseline: not given
# Direction: higher = stronger binding
# Residues (chain): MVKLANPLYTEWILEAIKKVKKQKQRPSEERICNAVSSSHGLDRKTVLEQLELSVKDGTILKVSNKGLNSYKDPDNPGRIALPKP
Strand,E-score
CACTTATA,-0.0593
CTCGTCTC,-0.0588
CTTAAGCA,0.0451
AATAGCCT,-0.0907
AGGCTGAC,-0.117
GCGTCAGA,-0.0254
ATGCCGGA,0.181
CGTGCCAA,-0.156
ATCTGGGA,-0.191
CGTAATGC,0.168
GCAGTCGA,0.0358
AAAACTCT,-0.0542
GAACGGGA,0.197
CTTTGCGC,0.204
ACGTAGGC,-0.0473
ATCTCGAG,-0.233
GTGTCTAA,-0.261
ATCGACTA,-0.211
CCTGTGAG,-0.185
AAAGCCTA,-0.119
GTCTATTA,-0.0422
AGTATTGG,-0.0779
GAAGCAAA,-0.207
ATGGGACC,-0.0952

# Set 5
# Target: RNA binding protein fox-1 homolog 2, RRM domain, GST-SBP tag (RBFOX2, Homo sapiens, UniProt O43251-10, residues 100-194)
# Method: RNA Bind-n-Seq
# Molecule type: RNA
# Matrix: in vitro
# Tested at: 365 nM
# Notes: natural RNA segment, single round, ends assumed
# Baseline: no-protein control
# Direction: higher = stronger binding
# Shared flanks, not repeated: GGGAGUUCUACAGUCCGACGAUC … UGGAAUUCUCGGGUGCCAA
# Target sequence (chain): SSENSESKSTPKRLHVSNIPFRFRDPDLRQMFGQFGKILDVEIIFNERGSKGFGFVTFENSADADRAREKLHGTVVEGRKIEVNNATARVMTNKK
Strand,RBNS enrichment (R)
UCGGGGGCUUACUUGUGCAGUACUAAAAUCAAAGGAGCUGGUUCUUCUUUUCUCCCAAUCUUUUCUUAGUAAUGAACACACCUACAACUAGCCUGCCACUCCCAAUCACA,0.586
GAUCUACCAUUAGGGUGUGAGAGGUAGCCAGGAACCUUUGGUUUUAUAAAUGGUGACGAAAUGACAUCCUAAACAGAGUCUUUCUCCUGUAAUUUAGCUGAGAGAAUUCU,0.172
AAGAGACUUCUGACCUUGCUUCCCAACAGCUAAAGGGCUAACUGUCUUUAUGGAAGGCACUUGUUACAGUAUUUGCCCAUUGUACAGAGCAAUGCUACAUUGUUGUAAAA,0.386
UACUGUAUUAGUCCGUUUUCACGCUGCUGAUAAAGACAUACCCGAGACUGGGAAGAAAAAGUGGUUUAAUUGGACUUAAAGUUCCACAUGGCUGGGGAGGCCUCAGAAUC,0.632
CCUCAGCCCAUCUUGCUCCCUCUUCAGCCCGCUGAGGAGCUUUCUUGGGCUGCCCCCAUCUCUCCCAACAAGGUGUACAUAUUCUGCGUAGAUGCUAGACCAACCAGCUU,0.416
UUUCCGCAGGUCUGCUCCCCACCCCUGCCUCGGAAGAAUAAAGAGAAUGUAGUUCCCUACUCAGGCUUUCGUAGUGAUUAGCUUACUAAGGAACUGAAAAUGGGCCCCUU,0.386
UUCGUACAAAUGUGAAGUAUUAAUAUUAUCGCAGUAUUAUUGUUGUUAUUAUUAUUGUUAUUAUUAACAAUCUUGGGUGGGUAGUAGGAGAGCAAAAAGUAUGAAUGGGA,0.76
UUAUUCCGGCAGCACAUAAACAGAUGACUCAUGCUGUGAGAGGUAAGACAGUGUGUAGCAGCCCUGAGCUUUUCAAUUCUACUGCUCUUUCUCUUCCCGCAGACAGUCCC,0.483
AACACUCUUCCAAGGAAAAGCAGAAGUAAUAAUUGGAGGUAAAGUUUCCUUAGAGAAAAUAAUUUUAUUCUGCUUUGUCCAAUUAAAUUAUUCCAAUGGCGGAUGGUAAU,0.898
UGUAAUUGAAUUUGUAUAAUGCAGGCACUUUCUAAUUUAUUAGAGAUUAUGGAUCAGUUCUGACAUUAAAAUCAUAGUUAAUUGAUGGAUGGUUUUUAUAGUUUGUUGAU,0.993
ACUAUAAAAAGCAAUAAAUGCAAACAAAACAAAAAAGUUCAUGGUAAAAUGACGGAAUCAGCAUGUGAGUAAGGAUCGCUUUCCUCAAAGGUUACCCUCCCACCCCCGCU,3.11
UCAAGAGAAUCUCUGCUGGCUACCCCAGGACUUCUCAUUAUAGAUUUCCUGGAGCACGCAGCAGAAACUUUGCCUAGCCCAGUGGUUGUUUCCAUUAUCUGCUGCCAAAG,0.228

# Some of these lines once more (set 1):
Strand,7-mer Z-score
GCCCGCA,-0.213
GCCUUGU,-0.407
UCCAGCG,-0.168
GUCGCGC,-0.249
CCUUGGC,-0.358
CAGCUCU,-0.284
CGCACCU,-0.273
